Results collected from several papers.
Parts stem from different laboratories: compare values within a part only. Positions count from the first letter of the parent shown.

Study 1 — target: CCNB3, cyclin fold, Cln2 fusion (human); technique: yeast growth competition, sequencing; matrix: yeast; notes: weak parent motif; relative to: not given; direction: higher = stronger binding
Parent: CDKN1B docking peptide (human); PSACRNLFGPVDH
Change | normalised enrichment score
P10M | -0.0481
R5W | 0.221
L7P | -0.0301
S2C | 0.45
L7E | 0.00697
R5L | 0.329
C4D | 0.423
V11A | 0.0578
D12W | 0.552
F8A | -0.0442
D12M | 0.293
R5S | 0.232
F8D | 0.0358
C4E | 0.136
L7I | 0.623
P1F | 0.593
C4K | 0.275
P1Y | 0.437
N6A | 0.256
P1I | 0.173
F8R | 0.125
G9Y | 0.31
P1M | 0.29

Study 2 — technique: DHFR PCA, deep sequencing; matrix: yeast; added: (+)-ABA 17 µM; relative to: wild-type fitted maximum; direction: higher = stronger binding
Target: ABI1, truncated, D143A, DHFR fusion (Arabidopsis thaliana)
Notes: methotrexate growth selection, single substitutions
Parent: PYL1, truncated, DHFR fusion (Arabidopsis thaliana); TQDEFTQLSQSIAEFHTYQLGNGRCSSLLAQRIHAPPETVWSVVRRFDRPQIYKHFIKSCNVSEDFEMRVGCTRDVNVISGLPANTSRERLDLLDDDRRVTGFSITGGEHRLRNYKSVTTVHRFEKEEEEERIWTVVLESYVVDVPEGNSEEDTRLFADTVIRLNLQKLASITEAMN
Change | relative binding score
S140A | -10.6%
K58Y | 59.6%
R45T | 0.745%
E152G | 70.5%
T120G | 5.03%
V142A | 75.3%
F56R | -5%
C25I | 72%
T119N | 10.5%
E127T | 88.9%
S150C | 69.8%
Y53I | 14.4%
D3C | 82.2%
I57F | -13.8%
I133A | 96.9%
A84L | 7.51%
L20N | 84.4%
T154C | 79.1%
F56P | 7.14%
S26G | 77.3%
P146A | 62.1%
L28I | 80.2%

Study 3 — technique: universal PBM; molecule type: double-stranded DNA, one strand shown; matrix: in vitro; concentration: not given; direction: higher = stronger binding
Target: Sal-like protein 4, full length isoform B (SALL4, Homo sapiens, UniProt Q9UJQ4-2, residues 1-616)
Notes: 8-mer, flanks averaged, mean of replicates
Strand | E-score
AGGCTAAA | 0.0436
GCATCGAC | -0.199
CACTATGA | 0.141
ATGCCGTC | -0.0674
GACGCCAA | -0.111
ACTGGGGC | -0.187
AGAGGAGA | -0.153
ATCCTCTA | -0.00404
CACCGTAG | -0.101
TAGTCGCA | -0.0296
GGGAGAAA | -0.0158
CGACCTGA | -0.141
ACCCGCTA | -0.0888
AACTGCTA | -0.0343
CACCGTTA | -0.0109
GTAACCCA | 0.016
CAAGGGTG | -0.0842
ATCCTGCG | -0.187
GACTGGAA | -0.121
ACTGTTCA | -0.0652
CGTAACAA | 0.153
ACTACAGT | 0.0339
CTCGGCTC | -0.312
CGATTACC | -0.175

Study 4 — target: UBE2E1 UBC core domain (UniProt P51965); technique: yeast two-hybrid; matrix: yeast; notes: mostly zero background; relative to: not given; direction: higher = stronger interaction
Chain of UniProt P51965 (whole entry, looked up): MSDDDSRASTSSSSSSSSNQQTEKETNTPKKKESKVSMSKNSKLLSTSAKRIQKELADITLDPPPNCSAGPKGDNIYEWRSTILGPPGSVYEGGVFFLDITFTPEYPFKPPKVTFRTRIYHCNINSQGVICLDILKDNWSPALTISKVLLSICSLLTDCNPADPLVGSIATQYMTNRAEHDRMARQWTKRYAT
B1: RNF43 RING domain (UniProt Q68DV7); chain SGSSCSSAPVCAICLEEFSEGQELRVISCLHEFHRNCVDPWLHQHRTCPLCMFNITEGDSFS
B2: TRIM35 RING domain (UniProt Q9UPQ4); chain PSRSFKEELLCAVCYDPFRDAVTLRCGHNFCRGCVSRCWEVQVSPTCPVCKDRASPADLRT
B3: PHF7 RING domain (UniProt Q9BWX1); chain IQHGHVGEESCILCCEDLSQQSVENIQSPCCSQAIYHRKCIQKYAHTSAKHFFKCPQCNNRKEFPQEML
B4: RNF175 RING domain (UniProt Q8N4F7); chain LPTRSLSDNICAVCGQKIIVELDEEGLIENTYQLSCNHVFHEFCIRGWCIVGKKQTCPYCKEKVDLKRMIS
B5: RNF4 RING domain (UniProt P78317); chain TGLRPSGTVSCPICMDGYSEIVQNGRLIVSTECGHVFCSQCLRDSLKNANTCPTCRKKINHKRYHP
B6: TRIM52 RING domain (UniProt Q96A61); chain PMQTLQEEAVCAICLDYFKDPVSISCGHNFCRGCVTQLWSKEDEEDQNEEEDEWEEEEDEEAV
B7: TRIM55 RING domain (UniProt Q9BYV6); chain TMDNLEKQLICPICLEMFTKPVVILPCQHNLCRKCASDIFQASNPYLPTRGGTTMASGGRFRCPSCRHEVVLDRHG
Sequence | lacZ reporter activity
B1 (RNF43 RING domain) | 2740
B2 (TRIM35 RING domain) | 0
KRQCSDVDDICSICQAEFQKPILLICQHIFCEECMTLWFNREKTCPLCRTVISDHINKW (RNFT1 RING domain (UniProt Q5M7Z0)) | 0
SYEDKSNDFVCPICFDMIEEAYMTKCGHSFCYKCIHQSLEDNNRCPKCNYVVDNIDHLY (COP1 RING domain (UniProt Q8NHY2)) | 0
B3 (PHF7 RING domain) | 0
B4 (RNF175 RING domain) | 0
B5 (RNF4 RING domain) | 3140
B6 (TRIM52 RING domain) | 0
B7 (TRIM55 RING domain) | 0

A few entries again (study 1):
Change | normalised enrichment score
R5L | 0.329
C4D | 0.423
V11A | 0.0578
D12W | 0.552
F8A | -0.0442
D12M | 0.293
R5S | 0.232
F8D | 0.0358
C4E | 0.136
